Experimental data from different studies.
A part holds a random share of what one study measured. ± marks the error that the study gave.
Sequence of UniProt Q05940 (whole entry, looked up): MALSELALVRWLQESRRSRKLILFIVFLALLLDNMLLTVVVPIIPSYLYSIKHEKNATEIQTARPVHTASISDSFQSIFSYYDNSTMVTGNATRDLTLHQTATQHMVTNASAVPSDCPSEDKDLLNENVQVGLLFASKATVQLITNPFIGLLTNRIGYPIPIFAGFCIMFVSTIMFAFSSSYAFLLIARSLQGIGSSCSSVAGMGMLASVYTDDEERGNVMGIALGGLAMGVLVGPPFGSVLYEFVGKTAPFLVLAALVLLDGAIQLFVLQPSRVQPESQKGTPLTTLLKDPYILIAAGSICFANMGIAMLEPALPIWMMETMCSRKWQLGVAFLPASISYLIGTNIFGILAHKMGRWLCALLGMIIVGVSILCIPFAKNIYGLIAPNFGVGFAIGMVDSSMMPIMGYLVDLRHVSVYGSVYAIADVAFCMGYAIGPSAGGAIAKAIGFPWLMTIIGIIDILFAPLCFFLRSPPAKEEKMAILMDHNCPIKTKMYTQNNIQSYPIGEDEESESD

Sample 1
SMILES: CC(C)n1cnc(-c2ccc(F)cc2)c1-c1ncc(C(=O)Nc2ccc(N3CCN(C)CC3)cc2)[nH]1
Method: phase 2a trial
Species: idiopathic pulmonary fibrosis patients
dose	notes	patients with gastrointestinal disorders [%]
30 mg once daily	adverse event grade 3	0
60 mg once daily	adverse event grade 1	4
30 mg once daily	adverse event grade 2	2

Sample 2
Target: Hepatocyte nuclear factor 3-beta, forkhead domain (FOXA2, Homo sapiens, UniProt Q9Y261, residues 142-269)
Method: protein-binding microarray
Molecule type: double-stranded DNA, one strand shown
Matrix: in vitro
Tested at: not given
Notes: k-mer, scored over probes, only values ≥0.25
Direction: higher = stronger binding
Residues (chain): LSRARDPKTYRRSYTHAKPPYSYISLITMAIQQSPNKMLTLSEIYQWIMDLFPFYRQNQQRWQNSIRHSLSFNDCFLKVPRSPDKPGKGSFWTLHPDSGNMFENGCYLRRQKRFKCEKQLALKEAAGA
Oligonucleotide	E-score
ATCGTAAA	0.26
TGTCACAA	0.25
TATAAACA	0.339
GTACAGTA	0.267
ACTTTATA	0.261
GCGTATAC	0.253
AAATCATG	0.268
AATGTTGA	0.349

Sample 3
Target: Interferon regulatory factor 5, full length, phosphomimetic (IRF5, Homo sapiens, UniProt Q13568-2, residues 1-514, K96S/S451D/S453D/S456D/S462D)
Method: protein-binding microarray
Molecule type: double-stranded DNA, one strand shown
Matrix: in vitro
Tested at: 250 nM
Notes: 60-bp whole probe
Added: salmon DNA 0.4 mg/ml
Reference: random background probes
Direction: higher = stronger binding
All sequences stand within: GCCTAGCAC … GTCTTGATTCGCTTGACGCTGCTG
Oligonucleotide	log fluorescence [z-score]
TCATCCATGGGTATGGCACTGTGCTAG	-0.00759
AACGGTTTCGGGTTTCGGGACGTGCTA	8.23
GACGATCTCAGCCTGGAGACGTGCTAG	-0.236
TTAGATTTCGGGACTGAATTAGTGCTA	3.03
GACGGTATCGACTATCGGAACGTGCTA	4.87
TCACATATGTTTTTCATACTGTGCTAG	0.872
TTAGAACTGGACTATCGGTTAGTGCTA	6.43
GACGGCCTCCTTTTCCTGACGTGCTAG	-0.217

Single results of other studies
SMILES	target or system	observed	tested at	time	measurement	value
CC(C)(O)c1ccccc1CC[C@@H](SCC1(CC(=O)O)CC1)c1cccc(/C=C/c2ccc3ccc(Cl)cc3n2)c1	Sarcocystis neurona	parasite activity	10 µM	96 h	activity class	inactive
COc1cc2c(cc1OC)C1CC(=O)C(CC(C)C)CN1CC2 (stereo not shown)	Synaptic vesicular amine transporter (SLC18A2, Homo sapiens, UniProt Q05940)				Ki	11.9 ± 0.77 nM
CC(COc1ccccc1)N(CCCl)Cc1ccccc1 (stereo not shown)	Sarcocystis neurona	parasite activity	10 µM	96 h	activity class	inactive

Excerpt of the above (sample 3):
Oligonucleotide	log fluorescence [z-score]
TTAGATTTCGGGACTGAATTAGTGCTA	3.03
